Assay results gathered from unrelated publications.
Parts stem from different laboratories: compare values within a part only. Changes are numbered by the printed parent chain.

Study 1 — method: RNA Bind-n-Seq; form: RNA; medium: in vitro; tested at: 1 µM; notes: whole 134-nt RNA, ends assumed; with: 150 mM KCl; reference: input library; direction: higher = stronger binding
Target: Ras GTPase-activating protein-binding protein 1, C-terminal RGG region (G3BP1, Homo sapiens, UniProt Q13283)
Chain of UniProt Q13283 (whole entry, looked up): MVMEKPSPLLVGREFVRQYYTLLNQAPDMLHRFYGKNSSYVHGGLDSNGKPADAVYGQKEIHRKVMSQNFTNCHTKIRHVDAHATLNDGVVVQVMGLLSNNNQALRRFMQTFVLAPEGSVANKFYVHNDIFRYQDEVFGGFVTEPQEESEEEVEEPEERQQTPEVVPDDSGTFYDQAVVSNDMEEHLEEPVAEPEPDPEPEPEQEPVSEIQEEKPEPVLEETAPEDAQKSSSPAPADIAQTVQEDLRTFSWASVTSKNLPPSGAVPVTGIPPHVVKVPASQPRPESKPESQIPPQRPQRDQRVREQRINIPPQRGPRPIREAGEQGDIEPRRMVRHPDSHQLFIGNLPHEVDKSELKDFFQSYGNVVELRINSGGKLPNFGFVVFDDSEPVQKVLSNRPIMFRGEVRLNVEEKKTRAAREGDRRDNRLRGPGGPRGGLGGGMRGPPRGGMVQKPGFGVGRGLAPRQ
Strand	log2 enrichment
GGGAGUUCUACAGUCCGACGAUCCACAGACAACACGCACCCACACAGACACAAAGGGAAGGGGUUGGGAUGGGGACAGGGUGCACAGCAGGGCGGGGUAGGACCCCAGCCCCUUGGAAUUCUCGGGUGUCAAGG	-0.288
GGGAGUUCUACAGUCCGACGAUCCAAGUCCUGUGCUACACAUCGUAUGUACCGAAUCGGGAAAGGGUUUUUGGGUGGGAAAGUAUUAUGUUACGCCGUUCGGAUCUGCACUUCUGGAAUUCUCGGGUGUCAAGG	1.04
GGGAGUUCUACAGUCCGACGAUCUAACUUUAGAGGAGGAUCUGAUGGAUUUGGCAGUGGACGUGGAUUUGGGGAUGGCUAUAAUGGGUAUGGAGGAGGACCUGGAGGUGGCAAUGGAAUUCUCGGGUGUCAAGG	-1.41
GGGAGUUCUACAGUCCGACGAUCUCAAGUCCUGUGCUACACAUCGUAUGUACCGAAUCGGGGAAGGGGAAGGGAAGGGAAAGUAUUAUGUUACGCCGUUCGGAUCUGCACUUCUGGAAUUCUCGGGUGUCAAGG	2.21
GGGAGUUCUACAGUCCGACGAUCUAGGAAAACCGUCUUCAGAUACAGUCCCUAAGCCCAAGAGAGCCCCAAAACAGAAGAAAGUAGUAGAGGCUGUAAACUCUGACUCGGAUUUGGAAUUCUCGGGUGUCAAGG	-0.626
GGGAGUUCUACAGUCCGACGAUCCUCAAGUCCUGUGCUACACAUCGUAUGUACCGAAUCGGGGAGGGGAGGGGAGGGAAAGUAUUAUGUUACGCCGUUCGGAUCUGCACUUCCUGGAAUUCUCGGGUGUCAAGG	2.7
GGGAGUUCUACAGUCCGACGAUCUGGCCCUGGUGGCAUGCGGGGAGGAAGAGGUGGCCUCAUGGAUCGUGGUGGUCCCGGUGGAAUGUUCAGAGUUGGCCGUGGUGGAGACAGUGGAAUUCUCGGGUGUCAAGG	3.39
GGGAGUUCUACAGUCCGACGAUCCACAGACAACACGCACCCACACAGACACAGAGGGAAGGGGUUGGGAUGGGGACAGGGUGCACGGCAGGGCGGGGUAGGACCCCAGCCCCUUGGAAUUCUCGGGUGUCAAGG	-0.499
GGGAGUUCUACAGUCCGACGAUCUUUGGAGAAGGAACCCCACUCUCCAGCUGACCAGCCUGAACAACAGGCAGAAUCCACUUUGACAUCAGCUGAGACUAGGGGAAGCAAGAAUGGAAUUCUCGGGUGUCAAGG	-1.5
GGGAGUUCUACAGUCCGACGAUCCAAGUCCUGUGCUACACAUCGUAUGUACCGAAUCGGGUUUGGGAAAAAGGGUGGGAAAGUAUUAUGUUACGCCGUUCGGAUCUGCACUUCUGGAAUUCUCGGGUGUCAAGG	2.09

Study 2 — target: CCND1, cyclin fold, Cln2 fusion (human); method: yeast growth competition, sequencing; medium: yeast; notes: weak parent motif; reference: not given; direction: higher = stronger binding
Starting sequence: CDC25A docking peptide (human); PPHRRRLLFACSP
Variant	normalised enrichment score
PMHRRRLLFACSP [P2M]	0.453
PPHRRRVLFACSP [L7V]	0.045
PPERRRLLFACSP [H3E]	-0.343
VPHRRRLLFACSP [P1V]	-0.0806

Study 3 — method: RNA Bind-n-Seq; form: RNA; medium: in vitro; tested at: 365 nM; reference: no-protein control; direction: higher = stronger binding
Target: RNA binding protein fox-1 homolog 2, RRM domain, GST-SBP tag (RBFOX2, Homo sapiens, UniProt O43251-10, residues 100-194)
Notes: natural RNA segment, single round, ends assumed
Strand	RBNS enrichment (R)
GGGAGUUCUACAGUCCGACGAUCAUGGACAUCUUACACCCGGUGGUCAAGUGUGUAAUAAACUUGAGCAUUCGAAUGGGAGAAAAAGCAAAUCGCACAAUGACAUAUUUUGAGUAAUAACCGUAUUUUUCACAUGGAAUUCUCGGGUGCCAA	0.642
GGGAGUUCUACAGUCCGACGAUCUCUCUCAAAGAUACCUAGCCAGGCUCCUAACCAUGUUCUUCAACCAUUGAUUUUGUUUGAUUUCUGAUGUGGAAGUGCGGUCAUUCCUGGUUUAACUCACAGCAACUUUUUGGAAUUCUCGGGUGCCAA	0.656
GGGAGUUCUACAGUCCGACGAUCAAGAAUAGGUCAUUUUCUAUUCACCAUCCUUUACUAUUAAGGGAAAGGAAAAGAACACUAGCUAAGGAAGGGAAAGGGAAGUGAUAUCAUAAAAGUAGCAACCUUCAUUUUGGAAUUCUCGGGUGCCAA	0.405
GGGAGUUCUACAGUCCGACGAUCAAAUUCAAGGCCACAAAAACAAUGUUUGGGGGAAAAAAAAGAAAAAAUCAUGCCAGCUAAUCAUGUCAAGUUCACUGCCUGUCAGAUUGUUGAUAUAUACCUUCUGUAAAUGGAAUUCUCGGGUGCCAA	0.457
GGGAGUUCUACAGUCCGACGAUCUGGAAACCAGAAUGAUUUUGACAUACAGGAGAGCUGCAGUUGUGAAAGCACCAUCAUCAUAGAGGAUGAUGUAAUUAAAAAAUGGUCAGUGUGCAAAGAAAAGAACUGCUUGGAAUUCUCGGGUGCCAA	0.679
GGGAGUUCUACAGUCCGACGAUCGGAAAGUCCACUUCAGCCACCAGGAGCAAAGCUGAAAUGGCAUUUGUUUUUCACACCUGGGGUCAGGGGUAUCGAUAGUCACGGCUGCCAUUGGCUUUAGGUCUCUGGACUGGAAUUCUCGGGUGCCAA	0.405
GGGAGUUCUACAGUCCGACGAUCUGUUUUGUGAUAUUUUAUUGUAUAAACUGUUAAUGAGAGGCACAGCUAAUUGUACAUAUCAAUAUACAUUUAAAAUCUGGUAACACUGGUUAAAUAGCCCUUGAUGACUUUGGAAUUCUCGGGUGCCAA	0.477

Mixed results
Molecule	target	test	system	setting	scale	quantity	value
PhoQ, residues 284 288 289 292 302 303 SLGVVW	PhoP, residues 12 14 15 18 19 NHFIF (Escherichia coli, UniProt P23836)	Sort-seq, refers to: YFP reporter	E. coli	PhoQ-PhoP variant library, with: 10 µM Mg2+	reference: high Mg2+ state, higher = stronger signaling	fold induction	2.74
